Assay results of several laboratories.
Each numbered part is a random draw from the data of one study; scales do not carry over between parts.

Block 1 — method: RNA Bind-n-Seq; molecule type: RNA; sample: in vitro; tested at: not given; relative to: input RNA pool; reading: higher = stronger binding
Target: RING finger protein unkempt homolog, zinc fingers 1-6, GST-SBP tag (UNK, Homo sapiens, UniProt Q9C0B0, residues 30-357)
Chain of UniProt Q9C0B0 (30-357, looked up): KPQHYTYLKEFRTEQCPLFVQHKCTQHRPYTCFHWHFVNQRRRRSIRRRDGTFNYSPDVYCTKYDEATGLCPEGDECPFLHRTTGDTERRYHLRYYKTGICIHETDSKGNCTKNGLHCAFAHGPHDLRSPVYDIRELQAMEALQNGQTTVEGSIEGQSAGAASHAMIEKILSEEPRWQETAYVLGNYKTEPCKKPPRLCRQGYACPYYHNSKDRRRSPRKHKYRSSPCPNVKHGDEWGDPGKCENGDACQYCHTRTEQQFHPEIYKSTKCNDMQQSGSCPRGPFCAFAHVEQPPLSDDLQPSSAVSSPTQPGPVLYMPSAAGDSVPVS
Notes: RNA with constant flanks, human and mouse sites, ends assumed
Constant ends, left off below: GGGAGUUCUACAGUCCGACGAUC … CAACAGAGGAUUGAGCAUCA
Sequence | bound/input enrichment [ratio]
GAGGGUUUGUCAGAGCCCAAGAAAAGGUCAGCAGAGGAUGAAAAUGAGCAUAAAGUGGAGUUCCGAAAGAAAGGGUUUGAAGCAGGAGGAUUUCUUGGAAGAAAGAAAGUUCCCUAUCUG | 0.281
CGUGCUUAUGCUCUUCUAUGAGAGAGAUGAAUUGGGGAGAAUUGUCUCCAUUUUAUAGAUUAGUUUCUUUCUAAAUUAUGACCAAAAAUAUUUUGCUAUUUCUUUCUUUGUAUAUGGACA | 5.86
CAAAAUUUGGAUGCCCUCCUGAACCAGCUGAAAAGCUUCCCUGCCCGGUUGCGACAGUAUGCGUCCUAUGAGUUUGUUCAGAGGCUUCUGAAAGGUUACAUGAAGAUAAAUAUGCUGGUG | 0.191
UACUUUACAAUCAUCCACACUGUGGUCUGUGGAUCUUUAAUAUAUAUAUAUAUAAAACAAUAGUAGUCAUUUUUAAGUAUAUUCUGAAACCUUUGCAAAUUUUAAGAGAAGAGUCGAAGC | 45.1
GGGAGCCCCAUCGCGUCUGUCUCCUUUGGCGCUUGCAGAGACUUCAUUUUCCGGCACAAAGACUCUCGAGGGAAGAGGCCCCGGAGGACAGUGGAGGUGGUCAGGCUGCAGCUGGCACAC | 0.383
UUAGCAGGUGGAGCCAUCUUCUGUGUUUCUACAUGGACAUAUACAGCCACACAAAUUGGAAUAGAAUGGAACAUGUCCCCUGUUGGCAGAGUCACCCCAAAGGAAUGGAGAGAUCAGUAG | 0.491
GGAGGGUAUGGAGGCUAUGAUGACUAUGGAGGUUAUAAUGACGGGUAUGGUUUUGGGUCUGAUAGAUUUGGAAGAGACCUAAACUACUGUUUCUCAGGAAUGUCUGAUCAUAGAUAUGGA | 2.1
AAGAACAUACGAAUUGUGGUGAUGAACAAUCUCUUGCCUCGGUCAGUCAAAAUGCAUAUGAAAUAUGACCUGAAGGGUUCAACUUACAAGCGGCGGGCUUCUCAGAAAGAACGAGAGAAA | 0.361

Block 2 — method: RNA Bind-n-Seq; molecule type: RNA; sample: in vitro; tested at: 200 nM; notes: whole 134-nt RNA, ends assumed; added: 150 mM LiCl; relative to: input library; reading: higher = stronger binding; each molecule: 7-deaza-guanosine replaces G
Target: Fragile X messenger ribonucleoprotein 1, C-terminal low-complexity region (Fmr1, Mus musculus, UniProt P35922)
Constant ends, left off below: GGGAGUUCUACAGUCCGACGAUC … UGGAAUUCUCGGGUGUCAAGG
Sequence | log2 enrichment
UGGCCCUGGUGGCAUGCGGGGAGGAAGAGGUGGCCUCAUGGAUCGUGGUGGUCCCGGUGGAAUGUUCAGAGGCGGCCGUGGUGGAGACAG | -0.578
UGUGGCCGCAGGACGAGUACAUCGUGGAGUACUCACUAGAGUAUGGCUUCCUUCGCCUGUCGCAGGCCACCCGCCAGCGCCUGAGCAUCC | 0.59
UGGCCCUGGUGGCAUGCGGGGAGGAAGAGGUGGCCUCAUCGAUCGUGGUGGUCCCGGUGGAAUGUUCAGAGGUGGCCGUGGUGGAGACAG | 0.0569
UAACUUUAGAGGAGGAUCUGAUGGAUAUGGCAGUGGACGUGGAUUUGGGGAUGGCUAUAAUGGGUAUGGAGGAGGACCUGGUGGUGGCAA | 0.118
UGGCCCUGGUGGCGUGCGGGGAGGAAGAGGUGGCCUCAUGGAUCGUGGUGGUCCCGGUGGAAUGUUCAGAGGUGGCCGUGGUGGAGACAG | 0.749
CUCAAGUCCUGUGCUACACAUCGUAUGUACCGAAUCGGGAGGGAAAGGGAGGGAAAGUAUUAUGUUACGCCGUUCGGAUCUGCACUUCCA | -0.231
AGUCCUGUGCUACACAUCGUAUGUACCGAAUCGGGGCCCCGGGGCCCCGGGGCCCCGGAAAGUAUUAUGUUACGCCGUUCGGAUCUGCAC | 0.455
CCUCAAGUCCUGUGCUACACAUCGUAUGUACCGAAUCGGGGUGGUGGGGUGGGAAAGUAUUAUGUUACGCCGUUCGGAUCUGCACUUCCA | -1.05

Block 3 — method: protein-binding microarray; molecule type: double-stranded DNA, one strand shown; sample: in vitro; tested at: 2200 nM top; notes: 60-bp whole probe; added: salmon DNA 0.4 mg/ml; relative to: random background probes; reading: higher = stronger binding; constant ends, left off below: GCCTAGCAC … GTCTTGATTCGCTTGACGCTGCTG
Target: Interferon regulatory factor 7, full length, phosphomimetic (IRF7, Homo sapiens, UniProt Q92985, residues 1-503, S471D/S472D/S475D/S476D/S477D/S483D/S484D/S487D)
Chain of UniProt Q92985 (whole entry, unmodified, looked up): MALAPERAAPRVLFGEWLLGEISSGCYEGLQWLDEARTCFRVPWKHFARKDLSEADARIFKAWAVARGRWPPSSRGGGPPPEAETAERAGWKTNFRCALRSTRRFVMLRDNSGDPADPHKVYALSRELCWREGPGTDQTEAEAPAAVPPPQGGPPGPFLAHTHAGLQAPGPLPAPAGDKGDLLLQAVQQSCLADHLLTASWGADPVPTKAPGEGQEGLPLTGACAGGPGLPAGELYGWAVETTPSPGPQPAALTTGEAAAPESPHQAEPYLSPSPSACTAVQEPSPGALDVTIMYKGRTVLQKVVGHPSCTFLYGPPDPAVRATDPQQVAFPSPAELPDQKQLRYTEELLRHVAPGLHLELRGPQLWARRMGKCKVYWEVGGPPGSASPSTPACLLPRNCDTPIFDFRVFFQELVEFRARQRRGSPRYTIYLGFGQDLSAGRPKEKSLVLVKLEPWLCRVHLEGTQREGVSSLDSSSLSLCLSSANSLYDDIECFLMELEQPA
Sequence | fitted relative affinity [z-score]
TTGGGACTGCTTTTCCTTTAGTGCTAG | 1.47
GCAGATTGGGTTTCAGGGCTGTGCTAG | -0.0312
GGTTTTCTCTATTGCTTTCTGTGCTAG | 2.88
GACGGTATCCATCTCCTGACGTGCTAG | 0.9
TTAGGTTTCGGTATAGGTTAGTGCTAG | 6.02
GTAGGTTTCGGACTGGGTTAGTGCTAG | 3.25
TCCTGCTGTACCCCTAGGGCGTGCTAG | -0.333
GAGGGTTTCGACTTTCGGGACGTGCTA | 6.46
TCATGACTCTGCCTCTAACTGTGCTAG | 1
TTAGGTTTCGGTTTCGGGTAGTGCTAG | 15.6
TTATAACTGAGTCTCGATTAGTGCTAG | 0.0934
TCACTTTACTCACTCGGACTGTGCTAG | 2.65

Block 4 — method: competition protein-binding microarray; molecule type: double-stranded DNA, one strand shown; sample: in vitro; tested at: 2 µM; added: Cbf1 competitor, 0.05 µM; reading: higher = stronger binding; constant ends, left off below: … GTCTTGATTCGCTTGACGCTGCTG
Target: Phosphate system positive regulatory protein PHO4, full length, GST-tagged (PHO4, Saccharomyces cerevisiae, UniProt P07270, residues 1-312)
Notes: whole 60-bp probe, lowest competitor level
Residues (chain): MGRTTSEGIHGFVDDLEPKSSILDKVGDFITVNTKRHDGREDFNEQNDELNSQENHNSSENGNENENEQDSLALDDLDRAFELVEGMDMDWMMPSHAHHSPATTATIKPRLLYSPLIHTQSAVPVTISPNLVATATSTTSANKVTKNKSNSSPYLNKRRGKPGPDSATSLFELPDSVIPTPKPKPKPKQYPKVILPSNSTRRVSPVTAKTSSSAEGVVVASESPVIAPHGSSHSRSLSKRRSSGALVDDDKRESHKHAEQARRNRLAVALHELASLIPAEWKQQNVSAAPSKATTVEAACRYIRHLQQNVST
Sequence | fluorescence intensity [a.u.]
CTTTCCCGATCTTGTGTCGTGGGTGTAGCACATTTG | 7070
TGAGCCTTCCCGTCGCGCGTGATGGGGAGATACAGA | 6710
ATTACCTTGGCCCTTCACGGGCGGGTTCCTCGGAAT | 4400
TGAGTTGTCGGGCTCATCGTGCTTTATCAAGTGGTT | 9800
TCTTGACATGTTCGGCACGCAAAATACCACCTAGGG | 5570
AGATGCAGGACTCGGCACGTTTTACAATACGTATCG | 14200
GGCCAAACAACCAGGGTCGTGCCAGTATTTGGCGCC | 9850
AACCGCAAGTATATACACGCACACACCTATCAATCA | 9700
TGGAACATCGCGAACATCGTGCCGACGCTGATAGTC | 8840
ATTGCATTCTTAAAACACGTGCTTTACCAGTGGGAA | 21300
TGCGCAACAACTTTTCACGTGATGTTATGTCTAGAA | 10900
ACCCCTTTTCAAAAGGTCGTGATTGTTTTCGTAAGA | 4830
CTAACGAAGGTTTGCTACGTGGGTGACAAGCCAAGT | 7450
CATACCCAACCTTGTCACGTGACTTAAGATATTTGT | 13700
CAGGAACCCATAAGTCAGCTGAGCCTGTGTCTAACA | 3500
TTGGAAGAGAACCGTCACGTAGGGATGATTTAGAAT | 5480
ATGGGCTCGAAAAATCTCGTGCCAGTGTAGACTCCC | 8800
GTCTCTCGTCCCATGCTCGTGCGATTTGTGCATTCA | 10600
GTCTTGTCTCATTTTCACGTGCGATTCCCCACTTCA | 12200

Some of these lines once more (block 4):
Sequence | fluorescence intensity [a.u.]
GGCCAAACAACCAGGGTCGTGCCAGTATTTGGCGCC | 9850
AACCGCAAGTATATACACGCACACACCTATCAATCA | 9700
ATTACCTTGGCCCTTCACGGGCGGGTTCCTCGGAAT | 4400
TCTTGACATGTTCGGCACGCAAAATACCACCTAGGG | 5570
TGAGCCTTCCCGTCGCGCGTGATGGGGAGATACAGA | 6710
ACCCCTTTTCAAAAGGTCGTGATTGTTTTCGTAAGA | 4830
